# Experimental data from different studies.
# Numbered parts are unrelated; each lists some results of a single study.

# Sample 1 — method: protein-binding microarray; molecule type: double-stranded DNA, one strand shown; matrix: in vitro; concentration: 250 nM; setting: 60-bp whole probe; added: salmon DNA 0.4 mg/ml; relative to: random background probes; direction: higher = stronger binding
# Target: Interferon regulatory factor 5, full length, phosphomimetic (IRF5, Homo sapiens, UniProt Q13568-2, residues 1-514, K96S/S451D/S453D/S456D/S462D)
Sequence,log fluorescence
GCCTAGCACTCAGAAATCAGTATGTTACTGTGCTAGGTCTTGATTCGCTTGACGCTGCTG,0.299 z-score
GCCTAGCACGACGATTTCAGACTGGCGACGTGCTAGGTCTTGATTCGCTTGACGCTGCTG,0.185 z-score
GCCTAGCACGACGAACCGAGTCTCGAGACGTGCTAGGTCTTGATTCGCTTGACGCTGCTG,-0.149 z-score
GCCTAGCACTTAGGTCTCGGTATGGGTTAGTGCTAGGTCTTGATTCGCTTGACGCTGCTG,0.687 z-score

# Sample 2 — method: universal PBM; molecule type: double-stranded DNA, one strand shown; matrix: in vitro; concentration: not given; direction: higher = stronger binding
# Target: Sal-like protein 4, full length isoform B (SALL4, Homo sapiens, UniProt Q9UJQ4-2, residues 1-616)
# Setting: 8-mer, flanks averaged, mean of replicates
Sequence,E-score
ACAGCGCA,-0.225
CACCCAAG,-0.144
TAAGTTGA,0.166
CGGTATCC,-0.214

# Sample 3 — method: aptamer microarray, sandwich; molecule type: DNA with 2'F-ANA; matrix: in vitro; concentration: 200 nM; added: Cy3 exosite-II aptamer, 400 nM; direction: higher = stronger binding
# Target: Prothrombin, mature alpha-thrombin (F2, Homo sapiens, UniProt P00734)
# Setting: whole 15-mer aptamer, many near background
Sequence,mean fluorescence intensity [a.u.]
GGTTGGTGTGGTTGG (2'F-ANA at 1 2 4 5 9 11 12 13),66.2
GGTTGGTGTGGTTGG (2'F-ANA at 1 3 4 5 7 8 9 12 13 15),82.3
GGTTGGTGTGGTTGG (2'F-ANA at 2 3 7 8 11 14 15),465
GGTTGGTGTGGTTGG (2'F-ANA at 1 2 3 4 5 8 11 15),53.9

# Further values, each from its own experiment
Substance,target,test,system,setting,scale,quantity,result
"PhoQ, residues 284 288 289 292 302 303 SIHLQL","PhoP, residues 12 14 15 18 19 NNFVT (Escherichia coli, UniProt P23836)","Sort-seq, item: YFP reporter",E. coli,"PhoQ-PhoP variant library, added: 10 µM Mg2+","relative to: high Mg2+ state, higher = stronger signaling",fold induction,11.4
